# Results pooled from the literature.
# Numbered parts are unrelated; each lists some results of a single study.

# Study 1
# Target: Prothrombin, mature alpha-thrombin (F2, Homo sapiens, UniProt P00734)
# Technique: aptamer microarray, sandwich
# Molecule type: DNA with 2'F-ANA
# Sample: in vitro
# Concentration: 200 nM
# Setting: whole 15-mer aptamer, many near background
# Added: Cy3 exosite-II aptamer, 400 nM
# Reading: higher = stronger binding
# Strand: GGTTGGTGTGGTTGG
Modification,mean fluorescence intensity
2'F-ANA at 2 3 4 5 6 7 8 10 11 13 14,49.7 a.u.
2'F-ANA at 2 4 8 10 11 12 15,102 a.u.
2'F-ANA at 1 2 3 5 7 9 12 14,50.6 a.u.
2'F-ANA at 3 8 10 13 14 15,384 a.u.
2'F-ANA at 1 2 4 5 10 13 15,46.6 a.u.
2'F-ANA at 2 3 4 5 7 8 9 10 12 14 15,51.9 a.u.
2'F-ANA at 4 6 7 8 10 11 12 13 14,81 a.u.

# Study 2
# Target: Ras GTPase-activating protein-binding protein 1, RRM domain (G3BP1, Homo sapiens, UniProt Q13283)
# UniProt Q13283, sequence (whole entry, looked up): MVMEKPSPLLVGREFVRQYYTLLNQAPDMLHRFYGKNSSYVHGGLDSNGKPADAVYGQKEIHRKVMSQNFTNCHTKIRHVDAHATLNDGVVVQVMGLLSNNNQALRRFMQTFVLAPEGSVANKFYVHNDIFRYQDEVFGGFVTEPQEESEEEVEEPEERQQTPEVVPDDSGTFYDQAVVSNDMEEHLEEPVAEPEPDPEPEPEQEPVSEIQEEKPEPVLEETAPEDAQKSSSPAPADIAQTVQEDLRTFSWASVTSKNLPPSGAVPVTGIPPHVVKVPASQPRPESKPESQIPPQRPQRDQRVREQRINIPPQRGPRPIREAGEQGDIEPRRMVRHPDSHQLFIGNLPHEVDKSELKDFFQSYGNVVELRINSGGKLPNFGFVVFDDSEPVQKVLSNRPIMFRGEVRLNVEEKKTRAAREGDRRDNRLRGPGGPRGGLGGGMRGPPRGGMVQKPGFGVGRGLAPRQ
# Technique: RNA Bind-n-Seq
# Molecule type: RNA
# Sample: in vitro
# Concentration: 1 µM
# Setting: whole 134-nt RNA, ends assumed
# Added: 150 mM KCl
# Baseline: input library
# Reading: higher = stronger binding
# Shared flanks, not repeated: GGGAGUUCUACAGUCCGACGAUC … UGGAAUUCUCGGGUGUCAAGG
Strand,log2 enrichment
UGGGAGGUGGAUUUUGUUUAUUUUUUUAGCUCAUUUCCAGGGGUGGGAAUUUUUUUUUAAUAUGUGUCAUGAAUAAAGUUGCUUUUGAAA,2.08
CCUGUGCUACACAUCGUAUGUACCGAAUCGGGAAAAAAAGGGUUUUUUUGGGAAAAAGGGAAAGUAUUAUGUUACGCCGUUCGGAUCUGC,-0.302
CCUCAAGUCCUGUGCUACACAUCGUAUGUACCGAAUCGGGUGGGAGGGUGGGAAAGUAUUAUGUUACGCCGUUCGGAUCUGCACUUCCAG,0.773
UCCUGUGCUACACAUCGUAUGUACCGAAUCAAACCCCCCCAAACCCAAAUUUUUUUAAAAAAGUAUUAUGUUACGCCGUUCGGAUCUGCA,-0.299
GUCCUGUGCUACACAUCGUAUGUACCGAAUCGGGCCCCCGGCCCCCGGGCCCCCGGGGAAAGUAUUAUGUUACGCCGUUCGGAUCUGCAC,-0.615
AGUCCUGUGCUACACAUCGUAUGUACCGAAUCGGGGUUUUGGUUUUGGGGUUUUGGGGAAAGUAUUAUGUUACGCCGUUCGGAUCUGCAC,0.0434

# Study 3
# Target: Histone acetyltransferase KAT6A, winged helix 2, GST fusion (KAT6A, Homo sapiens, UniProt Q92794, residues 85-181)
# Technique: protein binding microarray
# Molecule type: double-stranded DNA, one strand shown
# Sample: in vitro
# Concentration: not given
# Setting: 8-mer, flanks averaged, mean of 2 arrays, mostly near background
# Baseline: not given
# Reading: higher = stronger binding
# Construct (chain): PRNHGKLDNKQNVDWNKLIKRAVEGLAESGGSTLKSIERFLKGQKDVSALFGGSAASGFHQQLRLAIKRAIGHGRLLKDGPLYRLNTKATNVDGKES
Strand,E-score
AGGGCTGG,0.0946
GTTGCAGA,0.0112
ACCGGGCC,0.0878
GCTTGTCC,0.108
GTTAGAAA,0.0712
ACACCAGC,-0.00325

# Single results of other studies
Molecule,target,assay,system,setting,how to read,quantity,result
"PhoQ, residues 284 288 289 292 302 303 MLMVEA","PhoP, residues 12 14 15 18 19 TQALL (Escherichia coli, UniProt P23836)","Sort-seq, measured: YFP reporter",E. coli,"PhoQ-PhoP variant library, added: 10 µM Mg2+","baseline: high Mg2+ state, higher = stronger signaling",fold induction,11.4

# Repeated from above (study 2):
Strand,log2 enrichment
UCCUGUGCUACACAUCGUAUGUACCGAAUCAAACCCCCCCAAACCCAAAUUUUUUUAAAAAAGUAUUAUGUUACGCCGUUCGGAUCUGCA,-0.299
AGUCCUGUGCUACACAUCGUAUGUACCGAAUCGGGGUUUUGGUUUUGGGGUUUUGGGGAAAGUAUUAUGUUACGCCGUUCGGAUCUGCAC,0.0434
